Experimental data gathered from unrelated publications.
Parts stem from different laboratories: compare values within a part only. Changes are numbered by the printed parent chain.

Study 1
Target: Sal-like protein 4, full length isoform A (SALL4, Homo sapiens, UniProt Q9UJQ4, residues 1-1053)
Sequence of UniProt Q9UJQ4 (whole entry, looked up): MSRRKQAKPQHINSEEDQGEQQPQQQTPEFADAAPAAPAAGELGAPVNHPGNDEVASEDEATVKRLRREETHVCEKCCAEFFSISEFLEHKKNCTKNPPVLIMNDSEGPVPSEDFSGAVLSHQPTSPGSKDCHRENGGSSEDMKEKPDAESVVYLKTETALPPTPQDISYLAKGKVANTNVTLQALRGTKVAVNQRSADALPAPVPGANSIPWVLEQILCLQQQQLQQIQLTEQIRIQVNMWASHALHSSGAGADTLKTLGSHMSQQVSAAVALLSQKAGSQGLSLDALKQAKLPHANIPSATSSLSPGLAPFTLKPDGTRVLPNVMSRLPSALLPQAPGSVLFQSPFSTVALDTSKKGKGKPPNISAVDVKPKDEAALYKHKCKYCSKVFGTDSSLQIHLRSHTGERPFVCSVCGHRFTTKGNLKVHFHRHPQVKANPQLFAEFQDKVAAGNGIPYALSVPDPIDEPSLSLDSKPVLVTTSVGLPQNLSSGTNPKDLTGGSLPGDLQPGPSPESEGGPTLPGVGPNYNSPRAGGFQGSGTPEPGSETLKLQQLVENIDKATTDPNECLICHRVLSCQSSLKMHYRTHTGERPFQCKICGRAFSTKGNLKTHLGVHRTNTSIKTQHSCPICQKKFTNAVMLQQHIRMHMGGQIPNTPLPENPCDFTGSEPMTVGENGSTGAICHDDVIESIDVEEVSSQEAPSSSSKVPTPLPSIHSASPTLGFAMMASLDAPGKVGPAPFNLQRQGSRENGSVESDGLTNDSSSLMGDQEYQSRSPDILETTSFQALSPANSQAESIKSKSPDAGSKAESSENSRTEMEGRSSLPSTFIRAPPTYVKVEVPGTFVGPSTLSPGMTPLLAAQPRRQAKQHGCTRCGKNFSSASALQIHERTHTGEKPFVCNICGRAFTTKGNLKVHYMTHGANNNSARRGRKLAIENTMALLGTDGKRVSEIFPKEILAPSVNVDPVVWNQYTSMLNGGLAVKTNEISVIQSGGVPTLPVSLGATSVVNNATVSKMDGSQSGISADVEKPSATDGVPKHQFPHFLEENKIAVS
Technique: universal PBM
Form: double-stranded DNA, one strand shown
Sample: in vitro
Concentration: 600 nM
Notes: 8-mer, flanks averaged, mean of replicates
Direction: higher = stronger binding
Quantity: E-score
CACCAGCC: -0.315
GTGCACAA: -0.0472
CCATTTGA: -0.00814
ACCCTACT: -0.101
TAGGGCAA: -0.0469
CGGTCACG: -0.247
GCCTCCCC: -0.185
CGTCATCA: 0.114
ATACCCAA: 0.00686
GACAGAGA: 0.0647
ACCAGTTC: -0.17
AAGGACGA: -0.0758
CCATGACC: -0.278
CGGGGTAA: 0.0117
ACTGGATC: -0.0904
CACGGAAC: 0.00806
AGTCGCTG: -0.279
ATCCATTA: 0.167
GAAACTGC: -0.171
CTATTGGA: 0.201

Study 2
Target: RNA binding protein fox-1 homolog 2, RRM domain, GST-SBP tag (RBFOX2, Homo sapiens, UniProt O43251-10, residues 100-194)
Technique: RNA Bind-n-Seq
Form: RNA
Sample: in vitro
Concentration: 365 nM
Notes: natural RNA segment, single round, ends assumed
Baseline: no-protein control
Direction: higher = stronger binding
Quantity: RBNS enrichment (R)
Constant ends, left off below: GGGAGUUCUACAGUCCGACGAUC … UGGAAUUCUCGGGUGCCAA
Construct (chain): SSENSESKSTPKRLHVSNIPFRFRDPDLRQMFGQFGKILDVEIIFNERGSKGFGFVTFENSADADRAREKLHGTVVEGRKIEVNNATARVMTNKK
GAGCCUGUGUCCGCAGCUGCUGCCACUCUGGGCUGCUCCAGCCUGCAACUUAGUGGAAGGAAUUACUUCCUCCUGAGGCUACAGGCGAGAAAGGUAGGGAUGGGCCAGCC: 0.414
GUGCUGCCUCAGCUUCCCGAGUAGCUAGGAUUACAGGUGCAUGCCACCACACCUGGCUAAUUUUUGUAUUUUAGUAGAGAUGGGGUUUCACCAUGUUGGCCAGGCUCGUC: 1.03
GGUCCUCUCUUCCACAGUGGCGGGCCCACUCAGCCCCGAGACCACCCAACCUCACCCUCCUGACCCCCAUGUAAAUAUUGUUCUGCUGUCUGGGACUCCUGUCUAGGUGC: 0.527
GAUGCCCAGCCCAGCAGCAUGCUUUGUACACUGAUAUAUUGGGUAAAUUUUGUUGAAUAAAUUAAGCUCAACUAUUUGUAUUUCAAUAGUUGAGUUGUAUUGCUUCCUGU: 3.15
UGGGCUUCUGAAAGUUGCCAUCUUCCCUCCGUGGAGCUCCAUUUGCUAUUUUCAUUAUACACUAUGAGGUAAAAUGUAAUAACAAAAGAGAGAGAAGUACCACUGUGGCU: 0.415
CCCGUCUUCUCCAACACCACCUCUCCAGAGGCCAAGGAGGCCUUGGAAACGAUUCCCCCAGUCAUUCUGGGAACAUGUUGUAAGCACUGACUGGGACCAGGCACCAGGCA: 0.737
AGAAGGGUGAUUAUGAGUGGUUCACAGCAGCCCUUAUAAGCUGGGCCAGAAAAUUUCACUAGGUCAGUAAUUUAAACCUUGGAUCUUCAAAAAAUAAAAUAAUGUGAAGC: 0.559
AAUUGUUUAUAGUGACCACACUAAUUAUUUUAACUGUACACAUCAGUUUAACAUCUUUUAAAAUUUGAACACUACGUAGUAGGGUGACUAAUUUUUGAAGAAUAUCACAA: 0.437
UAGUUCCUGUGACAUUCCGCCUUCCUUCCAUGUAGUCCCUCUUGGUAAUCUACCACCAAGCUUGUGGACUUCACCCCAACAAAAUUGUAAGCGUUGUUAGGUUUUUGUGU: 0.399
AGGUAGCUCUUGAAGGUGAUAGCCAUCUACUUUCCAGUGGCUGCCAACCACAGGGAGUGCCAGUUAACACUGGAAGGAUUAAGGCAAGGUCCCUUCUCUUGAGACUCCCC: 0.287
AUGAUGGUACAAUUUAAAAUCUUAGUCAACUUCUGUAGAAAGUUUUCUCUAUGAAAGUAAAGCUGUUUGAAAAAUUAUUAUUUUUUUACAGAUCUUUCUAUAAAAAAUAA: 0.868
GAGUGCUGUUGGUACACGGAGCCCCCUCCUCCAUACCCAUUGCUGCACCACCACUGUGGAUUGCACGCCUUUCUGGGUGGCUGCAGUCUCUGUCCCUUGUGAAAGCAUGG: 3.95

Study 3
Target: Histone acetyltransferase KAT6A, winged helix 2, GST fusion (KAT6A, Homo sapiens, UniProt Q92794, residues 85-181)
Technique: protein binding microarray
Form: double-stranded DNA, one strand shown
Sample: in vitro
Concentration: not given
Notes: 8-mer, flanks averaged, mean of 2 arrays, mostly near background
Baseline: not given
Direction: higher = stronger binding
Quantity: E-score
Construct (chain): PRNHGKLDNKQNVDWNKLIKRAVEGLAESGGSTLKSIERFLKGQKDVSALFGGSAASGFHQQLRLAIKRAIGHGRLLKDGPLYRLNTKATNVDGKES
GGCCGAAA: 0.256
AGACACTG: -0.0313
CGTGTACA: 0.0753
GAATTCAC: 0.0931
GAGGCCGC: 0.0842
GCTCAACC: 0.0164
CATAGCTA: -0.212
CACACATA: -0.0654
GCTCTAAC: -0.0787
AAGGAACA: 0.168
CACCGGGG: -0.0123
GGTGAATA: -0.00534
AAGCGCCC: 0.0482
GGCAGGAA: 0.057
ATTTGAGG: -0.0102
ACGCTTGG: -0.0357
ACGGCCGA: 0.166
GTTTGATA: 0.109

Study 4
Target: ABI1, truncated, D143A, DHFR fusion (Arabidopsis thaliana, UniProt P49597)
Technique: DHFR PCA, dose-response
Sample: yeast
Notes: Hill fit, mean, not affinity
With: (+)-ABA, dose series
Direction: lower = more sensitive
Quantity: ABA EC50
Starting sequence: PYL1, truncated, DHFR fusion (Arabidopsis thaliana, UniProt Q8VZS8); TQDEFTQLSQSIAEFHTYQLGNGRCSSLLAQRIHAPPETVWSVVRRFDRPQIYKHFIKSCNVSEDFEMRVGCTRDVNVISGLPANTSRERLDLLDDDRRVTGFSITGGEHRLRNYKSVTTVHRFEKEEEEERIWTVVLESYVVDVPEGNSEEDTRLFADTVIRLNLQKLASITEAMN
Y53L: 913 µM
Q51S: 46.6 µM
T101W: 162 µM
D75N: 1.54 µM
D159N: 1.21 µM
F47W: 27.8 µM
T1W: 1.34 µM
R69N: 3.77 µM
L94Y: 8.25 µM
R113H: 1.8 µM
I133G: 1.19 µM
R46Y: 170 µM
Q7L: 2.08 µM
G148D: 7.95 µM
P83D: 37.3 µM
G148T: 11.7 µM
L29T: 29.8 µM
V118L: 22 µM
A170R: 1.48 µM
I172Y: 2.97 µM
G23R: 5.77 µM
E67T: 2.2 µM
Q19Y: 5.19 µM
R132P: 1.59 µM
G23E: 10.3 µM

Study 5
Target: PABPC1L2, full length, GST fusion (mouse, UniProt A0ABA7IW68)
Technique: RNAcompete
Form: RNA
Sample: in vitro
Concentration: 20 nM
Notes: 7-mer, probes averaged, single round
Baseline: mean of 7-mers
Direction: higher = stronger binding
Quantity: 7-mer Z-score
Construct (chain): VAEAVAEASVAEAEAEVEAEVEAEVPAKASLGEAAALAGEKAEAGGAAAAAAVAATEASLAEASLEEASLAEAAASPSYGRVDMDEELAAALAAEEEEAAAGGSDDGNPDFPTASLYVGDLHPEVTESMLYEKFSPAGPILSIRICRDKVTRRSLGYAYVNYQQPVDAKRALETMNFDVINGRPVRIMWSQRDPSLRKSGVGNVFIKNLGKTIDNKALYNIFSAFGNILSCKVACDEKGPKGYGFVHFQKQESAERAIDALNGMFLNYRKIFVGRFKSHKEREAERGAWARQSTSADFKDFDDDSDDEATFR
GGUAUCU: -0.0718
UACCCUA: -0.219
CUGAGUC: -0.311
UCGCCCA: -0.436
CUUGUAU: -0.257
GUAAACU: 0.198
CACAGAU: -0.148
UACACUG: -0.119
UCGGGGG: 0.32
UUCCUAG: -0.139
ACUACGG: -0.0536
CCUUAGG: -0.342
GGGGUAU: 0.122
CGACACC: -0.244
CUUACUG: -0.171
UGACCAA: 0.184
UGAACUU: -0.235

Study 6
Target: Interferon regulatory factor 5, full length, phosphomimetic (IRF5, Homo sapiens, UniProt Q13568-2, residues 1-514, S451D/S453D/S456D/S462D)
Technique: protein-binding microarray
Form: double-stranded DNA, one strand shown
Sample: in vitro
Concentration: 940 nM top
Notes: 60-bp whole probe
With: salmon DNA 0.4 mg/ml
Baseline: random background probes
Direction: higher = stronger binding
Quantity: fitted relative affinity
Constant ends, left off below: GCCTAGCAC … GTCTTGATTCGCTTGACGCTGCTG
CAGCATCTGCAACATCTACAAGTGCTA: 0.0394 z-score
TTGGGTCTCGGTCTCGGTTAGTGCTAG: 5.07 z-score
TCACATATACACATCTTACTGTGCTAG: 0.922 z-score
GACGGTATCGGTCACGGGACGTGCTAG: 8.36 z-score
TTAGGACTGCTTATCCTTTGGTGCTAG: -0.307 z-score
TTTCTCTGCTCTTTTCAACAAGTGCTA: 4.03 z-score
GACGAACTGGGGACTGCAGACGTGCTA: -0.264 z-score
TTAGATTTCGGGTTTAGATTAGTGCTA: 1.61 z-score
CCGAAAATGCCCTTTTGGTGAGTGCTA: 0.276 z-score
CCTTGTCCCCTCAGGTATGGGTGCTAG: 0.125 z-score
TCAGACCTCGTCTCTATCACTGTGCTA: 0.386 z-score
TTAGAACTGAGTCTGGATTAGTGCTAG: -0.838 z-score
TCAGTTTTCATTTTATGACTGTGCTAG: 1.47 z-score
TTAGATATCGGCACTGGATTAGTGCTA: 0.413 z-score
TCCCTTTTCATGCTCTTATAGTGCTAG: 1.85 z-score
TTTGGTTTCGGTTCCGGTTAGTGCTAG: 19.3 z-score
TCAGGCCTCTTGCTCAGACTGTGCTAG: -0.355 z-score
ATATATATTCATATATATATGTGCTAG: 0.374 z-score
TACGGTCTCGGTTTCGGGACGTGCTAG: 5.9 z-score

Study 7
Target: CCNE1, cyclin fold, Cln2 fusion (human)
Technique: yeast growth competition, sequencing
Sample: yeast
Notes: weak parent motif
Baseline: not given
Direction: higher = stronger binding
Quantity: normalised enrichment score
Starting sequence: FOXM1 docking peptide (human); PHLARPIKVESPP
PHLARPIAVESPP [K8A]: -0.00798
AHLARPIKVESPP [P1A]: -0.184
PHLARAIKVESPP [P6A]: -0.223
PHLARPIKAESPP [V9A]: -0.202
PHLARPIKVESPA [P13A]: -0.249
PHLAAPIKVESPP [R5A]: -0.228
